Assay results pooled from the literature.
Every numbered part comes from another study and shows a few of its results, in no order. Changes are numbered by the printed parent chain.

Study 1 — method: RNA Bind-n-Seq; molecule type: RNA; medium: in vitro; tested at: 365 nM; relative to: no-protein control; direction: higher = stronger binding
Target: RNA binding protein fox-1 homolog 2, RRM domain, GST-SBP tag (RBFOX2, Homo sapiens, UniProt O43251-10, residues 100-194)
Notes: natural RNA segment, single round, ends assumed
Construct (chain): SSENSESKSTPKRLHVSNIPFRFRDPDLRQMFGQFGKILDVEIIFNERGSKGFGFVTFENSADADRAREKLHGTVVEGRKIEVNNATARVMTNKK
| Sequence | RBNS enrichment (R) |
| --- | --- |
| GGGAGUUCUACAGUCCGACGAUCGCCCACCCUGGAAACUGUUCCCCCUCCCCGAAUCUGGCUAAACAGCUGGCUGUAAUGCCUUAUCUCUUCUGGAAAGACGCUGGCUCAGACCGUGGAUUUGGCUUAGCACUUGGAAUUCUCGGGUGCCAA | 0.419 |
| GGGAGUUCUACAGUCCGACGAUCUGGCCAGUUCUUUUGUUUGUGCUUUGUAACAUAGGUACUUGGGAGACCAGCUGCCCUCCUGGCUUUUGGCUUUUUGGUGUCCUUGAAGGAGACCAGUCAUGAGUACCAAGUGGAAUUCUCGGGUGCCAA | 0.577 |
| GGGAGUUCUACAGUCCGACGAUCCAGUAGCUGGUGUGACUGAACAGCAAUGGGGUGGUUGGUACUCAAUGCCUAGGUGAGCCAGUGGUUCUCAAAGUAGGGUUCCCCAGGCACUGUCAGAAAUACAGUCAUACUGGAAUUCUCGGGUGCCAA | 1.69 |
| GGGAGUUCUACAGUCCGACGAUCUUUAUUCUGGGAAGAUGUUUUUCAAACUCAGAGACAAGGACUUUGGUUUUUGUAAGACAAACGAUGAUAUGAAGGCCUUUUGUAAGAAAAAAUAAAAGAUGAAGUGUGUUUGGAAUUCUCGGGUGCCAA | 0.627 |
| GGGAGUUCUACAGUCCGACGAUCGUCUUCUCGUUCAGGCCUGCCUCUGACAGCACUCACCAUGAGGACAUUCCAUCCUUCACCCCCUCCUCUGGCACAGGCCACCACUGCGGUGCUGUGCCUUCAGAUGGGAGUGGAAUUCUCGGGUGCCAA | 0.284 |
| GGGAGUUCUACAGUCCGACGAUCAUGUAUUGUAAAAUUUUGUAGUUUUGAUCACUUGUGAAUUUACUGUUGAUGUGGUAGCCACCUGCUGCAAUGGUUCCUCUUGUAGGUGAAUAAAUGUCUUGUCUACCCACUGGAAUUCUCGGGUGCCAA | 0.698 |
| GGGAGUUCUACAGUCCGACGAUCUAUCUUCCAUCGGUGGCCAAGGGAGUGUGGGUGGCUGUUCCCAGCACAUAGUAGGUGCUUGGUAAAAUAUCUGUGGUACUGAAUGUUGAGCACAGGUGCCCAAGUCAGAGUGGAAUUCUCGGGUGCCAA | 2.87 |
| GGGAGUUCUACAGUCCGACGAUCGUGAGCUGCCAGCUGCCCCUCUCCACCAGGGUACCCUGUCUUGGUGGUUAGGGGCCACUUUUCCUUUGAGGCUCUAGUGGAGGUGGAUGUCCUUCUCUGCCAGGCUUGGCUGGAAUUCUCGGGUGCCAA | 0.188 |
| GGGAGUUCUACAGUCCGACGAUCAAAAUACAUGUUUAUAGGAUGCGAUUGUUUCAACUUUCUUUUUCCAUUUUAAGAAGAUUCCAUUUCGGAAGAAGAUGCCGAAAUUUACAAAUUUCGCCAUACUCAGUGGGUGGAAUUCUCGGGUGCCAA | 0.514 |
| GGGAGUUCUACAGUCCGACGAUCCGUCUUUGCCCACGUCCCGACAACUUGUUCCCUGACCCCCUCAGGGAUGGCCCCAAACUGUCCCUGCCUCUGGCACCCCCUUUCAUUGGUUCCAUCCAUCCCCACAACAGUGGAAUUCUCGGGUGCCAA | 0.413 |
| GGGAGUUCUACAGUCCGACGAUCCAGAAUAGCCUGCCUAAUAAGAAGGACUUCGAACCAUUCCCUAUGGCCUCAUCUGGGACUGUUGGUUUAGUAAGCCUGUGGUCAACAAGUCACACCUACAUGACUGACCCUGGAAUUCUCGGGUGCCAA | 0.429 |
| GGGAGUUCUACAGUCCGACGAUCGAGCCCUGCUCCUUGUGGGCGCUCACACUGCCCCCGGAGCCUGCUGGGAGUGGGGCCAGCCGUGGACAGCUGAGGUUGGGGUCAAUGCCUCCUGGGCACCCUUGCCUCGCUGGAAUUCUCGGGUGCCAA | 0.98 |

Study 2 — target: CCNF, cyclin fold, Cln2 fusion (human); method: yeast growth competition, sequencing; medium: yeast; notes: strong parent motif; relative to: not given; direction: higher = stronger binding
Parent: ORC1 docking peptide (human); PRARKRLELGNLG
| Change | normalised enrichment score |
| --- | --- |
| E8A | 1.64 |
| G10S | 2.93 |
| R4I | 1.18 |
| L9G | 0.666 |
| R6Q | 0.887 |
| N11L | 3.91 |
| E8I | 4.03 |
| E8V | 4.48 |
| R4L | 1.37 |
| P1M | 2.71 |
| R2C | 2.73 |
| R4Q | 1.87 |
| P1T | 3.22 |
| R6M | 2.36 |
| R6G | 1.6 |
| L7M | 0.672 |
| G13E | 4.97 |
| G10W | 4.27 |

Study 3 — method: protein-binding microarray; molecule type: hairpin DNA; medium: in vitro; tested at: not given; relative to: not given; direction: higher = stronger binding
Target: Interferon regulatory factor 1, DNA-binding domain (IRF1, Homo sapiens, UniProt P10914, residues 1-114)
Notes: whole hairpin DNA, median over replicate spots
Residues (chain): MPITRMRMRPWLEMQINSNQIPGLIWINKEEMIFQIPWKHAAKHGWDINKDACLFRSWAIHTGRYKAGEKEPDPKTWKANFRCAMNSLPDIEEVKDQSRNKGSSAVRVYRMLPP
| Sequence | median fluorescence [a.u.] |
| --- | --- |
| GAGGCCCGAAACCGAAACGCCTCCTGGCGTTTCGGTTTCGGGCCTCACAC | 1630 |
| GAGGCCCGAAAGTGAAACGCCTCCTGGCGTTTCACTTTCGGGCCTCACAC (5mC at 7) | 1800 |
| GAGGCCCGAGAGTGAAACGCCTCCTGGCGTTTCACTCTCGGGCCTCACAC | 542 |
| GAGGCCCGAAAGTGCGACGCCTCCTGGCGTCGCACTTTCGGGCCTCACAC (5mC at 31) | 514 |
| GAGGCCCGAAAGTGACACGCCTCCTGGCGTGTCACTTTCGGGCCTCACAC (5mC at 16) | 526 |
| GAGGCCCGAAAGTCGAACGCCTCCTGGCGTTCGACTTTCGGGCCTCACAC (5mC at 14) | 570 |
| GAGGCCCAAAAGCGAAACGCCTCCTGGCGTTTCGCTTTTGGGCCTCACAC | 1360 |
| GAGGCCCGAAAGCGGAACGCCTCCTGGCGTTCCGCTTTCGGGCCTCACAC (5mC at 32) | 530 |
| GAGGCCTGAAAGCGAAACGCCTCCTGGCGTTTCGCTTTCAGGCCTCACAC | 1160 |
| GAGGCCCGAAACCGAAACGCCTCCTGGCGTTTCGGTTTCGGGCCTCACAC (5mC at 12) | 2100 |
| GAGGCCCGAATGTGAAACGCCTCCTGGCGTTTCACATTCGGGCCTCACAC | 596 |
| GAGGCCCGAAAGCGCGACGCCTCCTGGCGTCGCGCTTTCGGGCCTCACAC (5mC at 31) | 505 |
| GAGGCCCCGAAGCGAAACGCCTCCTGGCGTTTCGCTTCGGGGCCTCACAC (5mC at 8 38) | 588 |
| GAGGCCTGAAAGTGAAACGCCTCCTGGCGTTTCACTTTCAGGCCTCACAC | 1840 |
| GAGGCCCGAAAGCGAAACGCCTCCTGGCGTTTCGCTTTCGGGCCTCACAC (5mC at 13 39) | 856 |
| GAGGCCCGCGAGTGAAACGCCTCCTGGCGTTTCACTCGCGGGCCTCACAC (5mC at 37) | 530 |
| GAGGCCCGTAAGTGAAACGCCTCCTGGCGTTTCACTTACGGGCCTCACAC | 633 |
| GAGGCCCGAAAGTGACGCGCCTCCTGGCGCGTCACTTTCGGGCCTCACAC (5mC at 16) | 552 |
| GAGGCCCGAGAGTGAAACGCCTCCTGGCGTTTCACTCTCGGGCCTCACAC (5mC at 37) | 538 |

Study 4 — method: DHFR PCA, deep sequencing; medium: yeast; together with: (+)-ABA 0.032 µM; relative to: wild-type fitted maximum; direction: higher = stronger binding
Target: ABI1, truncated, D143A, DHFR fusion (Arabidopsis thaliana)
Notes: methotrexate growth selection, single substitutions
Parent: PYL1, truncated, DHFR fusion (Arabidopsis thaliana); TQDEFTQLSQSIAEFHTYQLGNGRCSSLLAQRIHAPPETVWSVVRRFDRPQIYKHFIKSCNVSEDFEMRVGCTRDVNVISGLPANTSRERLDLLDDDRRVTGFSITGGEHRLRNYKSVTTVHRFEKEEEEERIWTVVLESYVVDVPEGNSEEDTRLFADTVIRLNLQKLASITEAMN; partner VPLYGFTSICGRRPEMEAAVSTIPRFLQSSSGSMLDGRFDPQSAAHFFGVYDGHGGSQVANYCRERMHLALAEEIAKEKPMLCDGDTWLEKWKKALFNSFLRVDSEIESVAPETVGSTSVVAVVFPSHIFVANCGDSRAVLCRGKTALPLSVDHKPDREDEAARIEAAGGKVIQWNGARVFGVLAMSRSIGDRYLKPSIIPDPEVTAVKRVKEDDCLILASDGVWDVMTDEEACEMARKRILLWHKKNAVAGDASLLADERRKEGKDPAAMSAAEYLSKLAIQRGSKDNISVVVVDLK
| Change | relative binding score [%] |
| --- | --- |
| R45A | -7.24 |
| E174P | 2.21 |
| R98S | 1.46 |
| Y141H | 6.22 |
| T154F | -14.9 |
| F66V | 3.97 |
| E4Q | 14.3 |
| R123F | -1.01 |
| E151R | 15.8 |
| R32H | 8.76 |
| L169P | 4.49 |
| M68H | 3.84 |
| N61H | 51.3 |
| S11C | 30.3 |
| R98D | 0.419 |
| N177I | 17.1 |
| E38G | 1.1 |
| R90L | -3.01 |
| T135W | -5.97 |
| D96T | 0.902 |
| L138W | 0.0415 |
| I133G | 35.9 |
| N61F | 20.9 |
| R113H | 12.2 |
| V76L | 4.24 |
